Assay results collected from several papers.
Parts stem from different laboratories: compare values within a part only. Substitutions count along the parent as printed.

Set 1 — target: FOSL1, bZIP domain (human); technique: DHFR protein complementation; medium: yeast; relative to: wild-type JUN-FOS pair; reading: higher = stronger binding
Notes: single substitutions, most at no-binding floor
Starting sequence: JUN, bZIP domain (human); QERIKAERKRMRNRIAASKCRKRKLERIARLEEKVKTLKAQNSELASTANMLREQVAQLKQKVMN; partner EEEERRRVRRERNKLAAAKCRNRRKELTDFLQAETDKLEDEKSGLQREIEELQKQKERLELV
For `K39W`, the binding fitness was -1.25 natural log.
The binding fitness of `V35G` is reported as -1.35 natural log.
With `K34P` the binding fitness was -1.41 natural log.
The binding fitness of `E44D` is reported as -0.554 natural log.
For `R53L`, the binding fitness was -1.23 natural log.
The binding fitness of `A40G` is reported as -0.726 natural log.
For `K36F`, the binding fitness was -0.842 natural log.
The binding fitness of `K34D` is reported as -0.906 natural log.
With `M51I` the binding fitness was -0.315 natural log.
With `M51C` the binding fitness was -0.605 natural log.
`S47Q` has a binding fitness of -0.309 natural log.
`K39P` gave a binding fitness of -1.36 natural log.
With `A49N` the binding fitness was -1.45 natural log.
`K34T` has a binding fitness of -0.508 natural log.
For `K36Q`, the binding fitness was -0.394 natural log.
`V35W` gave a binding fitness of -0.793 natural log.
`S43H` gave a binding fitness of -0.398 natural log.

Set 2 — technique: protein-binding microarray; molecule type: double-stranded DNA, one strand shown; medium: in vitro; concentration: 2540 nM top; notes: 60-bp whole probe; added: salmon DNA 0.4 mg/ml; relative to: random background probes; reading: higher = stronger binding; constant ends, left off below: GCCTAGCAC … GTCTTGATTCGCTTGACGCTGCTG
Target: Interferon regulatory factor 3, full length, phosphomimetic (IRF3, Homo sapiens, UniProt Q14653, residues 1-427, S386D/S396D/S398D/S402D/T404D/S405D)
Target sequence (chain): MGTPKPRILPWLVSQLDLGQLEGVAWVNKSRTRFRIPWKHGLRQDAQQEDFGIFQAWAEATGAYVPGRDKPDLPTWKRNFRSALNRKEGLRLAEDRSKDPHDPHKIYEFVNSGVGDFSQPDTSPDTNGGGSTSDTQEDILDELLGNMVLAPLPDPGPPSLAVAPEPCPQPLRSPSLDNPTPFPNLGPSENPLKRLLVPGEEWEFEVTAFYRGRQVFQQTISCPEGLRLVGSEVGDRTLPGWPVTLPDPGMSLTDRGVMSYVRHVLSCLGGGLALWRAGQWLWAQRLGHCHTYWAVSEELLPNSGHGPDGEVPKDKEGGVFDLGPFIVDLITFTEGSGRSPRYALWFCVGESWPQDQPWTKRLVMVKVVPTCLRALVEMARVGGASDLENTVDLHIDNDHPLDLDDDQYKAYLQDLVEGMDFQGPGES
For `TTAGGTTCCGGGACTGGGTTAGTGCTA`, “fitted relative affinity” read 0.423 z-score.
`ATCCCGCCTGCCCCACAGAAGTGCTAG` — result for “fitted relative affinity”: -0.25 z-score.
`TGAGGTATCGACACTGGGTTAGTGCTA` — result for “fitted relative affinity”: -0.19 z-score.
For `TTAGGACGGCTTCTCCTTTAGTGCTAG`, “fitted relative affinity” read -0.397 z-score.
`CAGGGTTTCACTTTAAATTAGTGCTAG` — result for “fitted relative affinity”: 4.63 z-score.
Under “fitted relative affinity”, `TCATTTTTCCGAGTGAGACTGTGCTAG` is recorded as 1.92 z-score.
For `TTAGATTTCGGGTATCTATTAGTGCTA`, “fitted relative affinity” read 1.27 z-score.
`TTAGAACTGGGGTTTCGGTTAGTGCTA` — result for “fitted relative affinity”: 2.7 z-score.
`GACGGTTTCCTCATCCTGACGTGCTAG`: “fitted relative affinity” 4.41 z-score.
`TTAGATATCGGGCCTGGATTAGTGCTA` — result for “fitted relative affinity”: -0.463 z-score.
For `TTGGGTTTCCTTTTCCTTTAGTGCTAG`, “fitted relative affinity” read 10.5 z-score.
For `GACGGTATCCTTTTCTTGACGTGCTAG`, “fitted relative affinity” read 7.5 z-score.
Under “fitted relative affinity”, `TTAGGTTTCGGGCTGGGTTAGTGCTAG` is recorded as 2.48 z-score.
`TTAGGGCTGCTACTGCTTTAGTGCTAG` — result for “fitted relative affinity”: -1.24 z-score.
For `TCACATTTGATAAATCTTACTGTGCTA`, “fitted relative affinity” read 0.655 z-score.
For `GACGGTTTCGGCACTGGGGACGTGCTA`, “fitted relative affinity” read 2.87 z-score.
For `GACGATATCGGGACAGGAGACGTGCTA`, “fitted relative affinity” read 0.27 z-score.
For `TTAGATATCAGTATCGATTAGTGCTAG`, “fitted relative affinity” read 1.95 z-score.
Under “fitted relative affinity”, `CAGGGTCTCGCTTCATCTCCGTGCTAG` is recorded as -0.357 z-score.
For `GACGATATCAGTTTCGTGACGTGCTAG`, “fitted relative affinity” read 2.79 z-score.
For `TGAGGACTGGGTATCGGTTAGTGCTAG`, “fitted relative affinity” read 0.221 z-score.
For `ACTGATCACCGATTTCCTTCAGTGCTA`, “fitted relative affinity” read 0.816 z-score.
For `TCACTTTCCTTACTTCCCACTGTGCTA`, “fitted relative affinity” read 7.18 z-score.
`GACGGTTGCGGACTGGGGACGTGCTAG` — result for “fitted relative affinity”: 1.09 z-score.
`GGCGGTATCGGTTTCGGGACGTGCTAG`: “fitted relative affinity” 6.75 z-score.

Set 3 — technique: DHFR PCA, deep sequencing; medium: yeast; added: (+)-ABA 0.39 µM; relative to: wild-type fitted maximum; reading: higher = stronger binding
Target: ABI1, truncated, D143A, DHFR fusion (Arabidopsis thaliana)
Notes: methotrexate growth selection, single substitutions
Starting sequence: PYL1, truncated, DHFR fusion (Arabidopsis thaliana); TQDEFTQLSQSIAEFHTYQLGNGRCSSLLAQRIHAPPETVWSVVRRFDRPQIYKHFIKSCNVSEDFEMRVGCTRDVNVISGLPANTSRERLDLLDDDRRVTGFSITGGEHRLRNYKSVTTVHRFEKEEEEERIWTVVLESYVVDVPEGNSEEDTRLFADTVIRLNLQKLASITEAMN
`K54W`: “relative binding score” -4.03%.
`Y53D` — result for “relative binding score”: -7.28%.
Under “relative binding score”, `E64T` is recorded as 36.4%.
Under “relative binding score”, `E174S` is recorded as -2.74%.
`E131H`: “relative binding score” 65.8%.
For `N61R`, “relative binding score” read 61.3%.
`V78P` — result for “relative binding score”: -3.77%.
`N77Y` — result for “relative binding score”: 47.1%.
`K116V`: “relative binding score” -0.7%.
Under “relative binding score”, `N114I` is recorded as -6.44%.
Under “relative binding score”, `E67M` is recorded as 12.8%.
For `N149E`, “relative binding score” read 34%.
`L20C`: “relative binding score” 51.1%.
For `T119Q`, “relative binding score” read 15.1%.
`K54P` — result for “relative binding score”: -4.17%.
`L112H`: “relative binding score” -23.2%.
`T120H`: “relative binding score” -2.19%.
Under “relative binding score”, `I57T` is recorded as -8.9%.
Under “relative binding score”, `Q2L` is recorded as 66.1%.

Set 4 — target: CCNF, cyclin fold, Cln2 fusion (human); technique: yeast growth competition, sequencing; medium: yeast; notes: strong parent motif; relative to: not given; reading: higher = stronger binding
Starting sequence: DOT1L docking peptide (human); SEAKRRIVFTITT
For `AEAKRRIVFTITT [S1A]`, “normalised enrichment score” read 4.35.
For `SEAKRRIVFAITT [T10A]`, “normalised enrichment score” read 3.5.
Under “normalised enrichment score”, `SEAKRRIAFTITT [V8A]` is recorded as 1.28.
For `SEAKRRIVFTIAT [T12A]`, “normalised enrichment score” read 4.29.
Under “normalised enrichment score”, `SEAKARIVFTITT [R5A]` is recorded as -0.13.
`SEAKRRIVATITT [F9A]`: “normalised enrichment score” 1.

Repeated from above (set 1):
The binding fitness of `V35G` is reported as -1.35 natural log.
With `K34P` the binding fitness was -1.41 natural log.
The binding fitness of `E44D` is reported as -0.554 natural log.
For `R53L`, the binding fitness was -1.23 natural log.
The binding fitness of `A40G` is reported as -0.726 natural log.
For `K36F`, the binding fitness was -0.842 natural log.
